Results of several laboratories.
Each line is one published result; not all experiments were run side by side. “And” joins repeats or separate records; there may be more than shown. ± marks the error that the study gave.
BEST1: BEST1 (Homo sapiens, UniProt O76090)
Voltage-dependent P/Q-type calcium channel subunit alpha-1A: Voltage-dependent P/Q-type calcium channel subunit alpha-1A (Homo sapiens, UniProt O00555)
UCHL1: Ubiquitin carboxyl-terminal hydrolase isozyme L1 (UCHL1, Homo sapiens, UniProt P09936)
ADRA2C: Alpha-2C adrenergic receptor (ADRA2C, Homo sapiens, UniProt P18825)
T1: RNA aptamer C48U, 5'-triphosphate, 2',3'-cyclic phosphate; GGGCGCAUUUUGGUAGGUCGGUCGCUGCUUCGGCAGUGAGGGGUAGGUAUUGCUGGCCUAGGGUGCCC
T2: G-quadruplex DNA (Homo sapiens); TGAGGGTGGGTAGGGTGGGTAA

The inhibition of `Cc1cc(-c2ccnc3[nH]cc(F)c23)cc(F)c1[C@@]1(O)[C@H](C)CN(C(=O)CN)C[C@@H]1C` is reported as 88.5% (LATS2 (Homo sapiens, UniProt Q9NRM7); ATP probe binding, KiNativ, measured: Lys2 site; HEK293T cell lysate; 1 µM).
With `O=C(O)C1=CCNCC1` the current density was -8.84 pA/pF and -9.82 pA/pF and -11.2 pA/pF and -28.6 pA/pF and -52.9 pA/pF and -22.4 pA/pF (BEST1; whole-cell patch clamp; HEK293 transiently expressing channel; concentration not given, membrane potential -40 mV).
`O=C(O)c1cccc(C(=O)O)n1` gave a kon of 1170 ± 500 M⁻¹ s⁻¹ (Beta-lactamase L1 (Stenotrophomonas maltophilia, UniProt P52700); enzyme activity, inhibitor; together with: nitrocefin).
`CCN(CCO)CCCC(C)Nc1ccnc2cc(Cl)ccc12` (stereo not drawn) has an inactivation V1/2 of -88.3 ± 4.6 mV (SCN5A (Homo sapiens, UniProt Q14524); sodium current; 100 µM).
`CO[C@@H]1O[C@@H](C)[C@@H](O)[C@@H](O)[C@@H]1O` gave a ΔG of -6 kcal/mol (fleA (Aspergillus fumigatus, UniProt Q4WW81); ITC).
`O=S(=O)(NC(C1CC1)C1(CO)CCCO1)c1cccc(Cl)c1O` (stereo not drawn) gave a remaining activity of 97% (malate dehydrogenase; enzyme activity, inhibitor; 200 µM, pH 7.0, 1% DMSO, aggregation counter-screen).
`CSc1ccc(OCc2ncc([N+](=O)[O-])n2C)cc1` has an inhibition of 1.8% (Trypanosoma cruzi; reporter translation, Renilla luciferase mRNA translation; cell-free extract; 40 µM; relative to: DMSO).
The EC1.2 of `O=C(O)c1cc(N2C(=O)C(O)=C(Cc3ccccc3)C2c2ccc([N+](=O)[O-])cc2)ccc1O` (stereo not drawn) is reported as 175 µM (ESR1/YWHAZ, with 14-3-3 zeta (Homo sapiens, UniProt P03372+P63104); 14-3-3ζ/ERα peptide binding, stabiliser, fluorescence polarization).
For `CCN(c1ccccc1)S(=O)(=O)c1ccc(Cl)c(C(=O)Nc2ccccc2N2CCC(C)(C)C2=O)c1`, the selectivity ratio was > 9 fold (N-myristoyltransferase (Cryptosporidium parvum, UniProt Q5CV46); enzyme activity, inhibitor; relative to: HsNMT1 IC50 over target IC50).
The inhibition of `CCCCCCCCCCCCCCCCOP(=O)([O-])OCC[N+](C)(C)C` is reported as -7.2% (Trypanosoma cruzi; reporter translation, Renilla luciferase mRNA translation; cell-free extract; 40 µM; relative to: DMSO).
`CCOC(=O)c1[nH]c2cc(Cl)ccc2c1C(C(=O)NC1CCCCC1)N(C=O)Cc1ccc(Cl)cc1` (stereo not drawn) gave a Ki of 2300 nM (MDM2 (Homo sapiens, UniProt Q00987); fluorescence polarization).
`Nc1nc2c(ncn2[C@@H]2O[C@@H]3COP(=O)(O)O[C@H]3[C@H]2O)c(=O)[nH]1`: “relative binding EC50 ratio” 1 (cGMP antibody; acetylated EIA; relative to: EC50 cGMP over EC50 analogue).
`O=C(O)c1ccc(O)cc1` has a current density of -23.5 pA/pF and -12 pA/pF and -13.9 pA/pF and -20.4 pA/pF and -17.7 pA/pF and -25 pA/pF and -23.8 pA/pF (BEST1; whole-cell patch clamp; HEK293 transiently expressing channel; concentration not given, membrane potential -60 mV).
The inhibition of `CC[C@@H]1[C@H](F)C(=O)N[C@@H]1COc1nccc2cc(C(N)=O)c(OC)cc12` is reported as -4.2% (ATR (Homo sapiens, UniProt Q13535); ATP-site probe binding, ActivX profiling; THP-1 cell lysate; 0.2 mM).
`N=c1c[n+](N2CCOCC2)[n-]o1` gave a KI of 12000 ± 4000 nM (SIRT2 (Homo sapiens, UniProt Q8IXJ6); covalent inactivator, HPLC demyristoylase; pH 7.5, 37 °C, peroxynitrite donor, time-dependent, together with: NAD+).
With `Fc1ccc([C@@H]2CCNC[C@H]2COc2ccc3c(c2)OCO3)cc1` the IC30 was 1270 nM (Voltage-dependent P/Q-type calcium channel subunit alpha-1A; ion current, antagonist, automated patch clamp).
With `NCCCS(=O)(=O)O` the fraction bound was 0.000277 (SLC6A6 (Homo sapiens, UniProt P31641, Y138A); binding, microscale thermophoresis; 30.5 nM, fitted curve; higher = more binding).
Under “association rate constant”, `C=CC(=O)N1CCN(c2nc(OC[C@@H]3CCCN3C)nc3c(F)c(-c4nc(N)cc(C)c4C(F)(F)F)c(Cl)cc23)[C@@H](C)C1` is recorded as 137000 ± 8100 M⁻¹ s⁻¹ (GTPase KRas, GDP-bound (KRAS, Homo sapiens, UniProt P01116, Q61H); binding, surface plasmon resonance).
For `CSCC[C@H](NC(C)=O)C(=O)N[C@@H](CC(=O)O)C(=O)N1CCC[C@H]1C(=O)N1CCC[C@H]1C(=O)N[C@@H](CC(C)C)C(=O)N[C@@H](Cc1c[nH]cn1)C(=O)N[C@@H](CO)C(=O)N[C@H](C(=O)N[C@@H](C)C(N)=O)[C@@H](C)OP(=O)(O)O`, the binding entropy was -25.5 cal/(mol·K) (PLK1 (Homo sapiens, UniProt P53350); polo-box domain binding, isothermal titration calorimetry; concentration not given, 25 °C).
`COc1cccc(N2C(=O)C=CC2=O)c1` gave a labelling of 8.75% (UCHL1; covalent, intact protein LC-MS; 12.5 µM).
With `C[C@H](NCc1ccc(OCc2ccccc2F)cc1)C(N)=O` the IC30 was 7010 nM (Voltage-dependent P/Q-type calcium channel subunit alpha-1A; ion current, antagonist, automated patch clamp).
For `O=C(CCl)N1N=C(C=Cc2ccco2)CC1c1ccco1` (stereo not drawn), the labelling was 11.6% (UCHL1; covalent, intact protein LC-MS; 12.5 µM).
The IC30 of `CC[C@H](C)C(=O)O[C@H]1C[C@H](O)C=C2C=C[C@H](C)[C@H](CC[C@@H](O)C[C@@H](O)CC(=O)O)[C@H]21` is reported as > 30000 nM (Voltage-dependent P/Q-type calcium channel subunit alpha-1A; ion current, antagonist, automated patch clamp).
With `C[C@H]1O[C@H](O[C@H]2[C@H](O)[C@@H](O)[C@@H](O[C@H]3[C@H](O)[C@@H](O)C(O)O[C@@H]3CO)O[C@@H]2CO)[C@H](O)[C@@H](O)[C@@H]1N[C@H]1C=C(CO)[C@@H](O)[C@H](O)[C@H]1O` (stereo partly drawn) the band share was 100% (α-amylase isoenzymes; native PAGE densitometry, measured: abnormal band; equal to IC50).
`O=c1nc(SCc2cc(F)cc(C(F)(F)F)c2)nc(SCc2ccc3nc(Cl)ccc3c2)[nH]1` — result for “ATP hydrolysis rate”: 0.29 µM/min and 0.425 µM/min (TOP2A (Homo sapiens, UniProt P11388); ATPase activity; 31.25 µM, together with: ATP 0.05 mM).
The IC30 of `O=C(O)Cc1ccccc1Nc1c(Cl)cccc1Cl` is reported as > 30000 nM (Voltage-dependent P/Q-type calcium channel subunit alpha-1A; ion current, antagonist, automated patch clamp).
For `Nc1nc2c(ncn2[C@@H]2O[C@H](COP(=O)(O)OP(=O)(O)OP(=O)(O)O)[C@@H](O)[C@H]2O)c(=O)[nH]1`, the Kd was 352 nM (T1, RNA aptamer C48U, 5'-triphosphate, 2',3'-cyclic phosphate; ITC).
Under “V∞/Vmax ratio (b)”, `OC[C@H]1OC(O)[C@H](O)[C@@H](O)[C@@H]1O` (stereo partly drawn) is recorded as 0.32 ± 0.07 (Hexokinase-3 (HK3, Homo sapiens, UniProt P52790, E254A); substrate inhibition; mutant E254A, partial substrate inhibition model, together with: ATP 20 mM).
With `CCc1ccc(C(COC)NS(=O)(=O)c2ccsc2C(=O)O)o1` (stereo not drawn) the remaining activity was 106% (malate dehydrogenase; enzyme activity, inhibitor; 200 µM, pH 7.0, 1% DMSO, aggregation counter-screen).
The Hill coefficient of `N#Cc1ccc2[nH]cc(CCCCN3CCN(c4ccc5oc(C(N)=O)cc5c4)CC3)c2c1` is reported as 1.76 ± 0.19 (SLC6A4 (Homo sapiens, UniProt P31645); serotonin uptake, inhibitor; COS-7 expressing SLC6A4; 0 min preincubation, together with: [3H]5-HT).
The IC30 of `COc1ccc2c3c1O[C@H]1C[C@@H](O)C=C[C@@]31CCN(C)C2` is reported as > 30000 nM (Voltage-dependent P/Q-type calcium channel subunit alpha-1A; ion current, antagonist, automated patch clamp).
`C=CC(=O)N1CCC(COCC(=O)N2CCN(c3nc(-c4cnc(N)nc4C(F)F)nc(N4CCOC[C@@H]4C)n3)CC2)CC1` has a remaining binding of 95% (PTK2B (Homo sapiens, UniProt Q14289); KINOMEscan; 1 µM).
`Cc1cc(Oc2ncccc2CN2CCN(c3ccccn3)CC2)ccc1-c1c(C)c(=O)[nH]c(=O)n1C` has a selectivity ratio of 4 (ADRA2C; binding, radioligand binding; together with: [3H]rauwolscine; relative to: Ki alpha2A over Ki alpha2C).
For `N[C@@H](CCC(=O)O)C(=O)O`, the median current was 1.1 µA (glc-2 (Caenorhabditis elegans, UniProt Q17328, T283S); two-electrode voltage clamp; Xenopus laevis oocytes).
With `O=C(CCl)NCCc1nc2ccccc2s1` the labelling was 10.4% (UCHL1; covalent, intact protein LC-MS; 12.5 µM).
The IC50 of `CN1CCN(CCCNc2nc(-c3cccc(-c4nc(NCCCN5CCN(C)CC5)c5ccccc5n4)n3)nc3ccccc23)CC1` is reported as 272 nM (T2, G-quadruplex DNA (Homo sapiens); thiazole orange displacement, competitor, FID; 0.25 µM DNA, pH 7.4, 25 °C, KCl 100 mM, together with: thiazole orange 0.50 µM).
`O=S(=O)(Nc1c(Cl)ccc2c1OCO2)c1cc(Cl)cc(Cl)c1O` has a remaining activity of 99% (malate dehydrogenase; enzyme activity, inhibitor; 200 µM, pH 7.0, 1% DMSO, aggregation counter-screen).
For `CCC(=O)NS(=O)(=O)c1ccc(-c2c(-c3ccccc3)noc2C)cc1`, the activation was 0.68 fold (Vitamin D3 receptor (VDR, Homo sapiens, UniProt P11473); reporter gene, Gal4 hybrid reporter; 50 µM; relative to: vehicle).
For `O=C(O)c1ccoc1S(=O)(=O)NCc1cc(-c2ccccc2)no1`, the remaining activity was 104% (malate dehydrogenase; enzyme activity, inhibitor; 200 µM, pH 7.0, 1% DMSO, aggregation counter-screen).
The Emax of `C[C@H](CCC(C)(C)O)[C@H]1CC[C@H]2[C@@H]3CC=C4C[C@@](C)(O)CC[C@]4(C)[C@H]3CC[C@]12C` is reported as 201% (Glutamate NMDA receptor; GRIN1/GRIN2A (Homo sapiens, UniProt Q05586+Q12879); ion current, positive modulator, automated patch clamp; HEK293 (stable line); together with: glutamate 0.8 µM and glycine; relative to: current without compound).
The calcium influx of `Nc1ncnc2c1ncn2[C@@H]1O[C@H](COP(=O)(O)CP(=O)(O)OP(=O)(O)O)[C@@H](O)[C@H]1O` is reported as 0.178% and 0.496% and 1.17% (P2X purinoceptor 1 (P2RX1, Homo sapiens, UniProt P51575, R292A); calcium influx; 31.6 nM; relative to: ionomycin response).
For `CCNC(=O)/C=C/c1cccc(Br)c1`, “remaining transport activity” read 0.0295 (SLC6A19 (Homo sapiens, UniProt Q695T7); inhibitor, L-[14C]leucine uptake; CHO-BC cells; 100 µM, 6 min, unit not given, together with: GPNA 3 mM, JPH203 3 µM; relative to: uninhibited cells).
For `O=c1nc(SCc2cc(F)cc(C(F)(F)F)c2)nc(SCc2ccc3sccc3c2)[nH]1`, “mean decatenated DNA” read 100% (TOP2B (Homo sapiens, UniProt Q02880); decatenation; 7.8 µM).
`CC#CC(=O)NC1CCCN(C(=O)c2ccc(C(F)(F)F)cc2)C1` (stereo not drawn) gave a labelling of 21.5% (UCHL1; covalent, intact protein LC-MS; 12.5 µM).
`COc1ccccc1N1CCN(Cc2cccnc2Oc2ccc(-c3c(C)c(=O)[nH]c(=O)n3C)c(C)c2)CC1` has a selectivity ratio of 11 (ADRA2C; binding, radioligand binding; together with: [3H]rauwolscine; relative to: Ki alpha2B over Ki alpha2C).

Excerpt of the above:
For `CCC(=O)NS(=O)(=O)c1ccc(-c2c(-c3ccccc3)noc2C)cc1`, the activation was 0.68 fold (Vitamin D3 receptor (VDR, Homo sapiens, UniProt P11473); reporter gene, Gal4 hybrid reporter; 50 µM; relative to: vehicle).
The IC30 of `COc1ccc2c3c1O[C@H]1C[C@@H](O)C=C[C@@]31CCN(C)C2` is reported as > 30000 nM (Voltage-dependent P/Q-type calcium channel subunit alpha-1A; ion current, antagonist, automated patch clamp).
`CCN(CCO)CCCC(C)Nc1ccnc2cc(Cl)ccc12` (stereo not drawn) has an inactivation V1/2 of -88.3 ± 4.6 mV (SCN5A (Homo sapiens, UniProt Q14524); sodium current; 100 µM).
With `Fc1ccc([C@@H]2CCNC[C@H]2COc2ccc3c(c2)OCO3)cc1` the IC30 was 1270 nM (Voltage-dependent P/Q-type calcium channel subunit alpha-1A; ion current, antagonist, automated patch clamp).
For `O=c1nc(SCc2cc(F)cc(C(F)(F)F)c2)nc(SCc2ccc3sccc3c2)[nH]1`, “mean decatenated DNA” read 100% (TOP2B (Homo sapiens, UniProt Q02880); decatenation; 7.8 µM).
`O=S(=O)(Nc1c(Cl)ccc2c1OCO2)c1cc(Cl)cc(Cl)c1O` has a remaining activity of 99% (malate dehydrogenase; enzyme activity, inhibitor; 200 µM, pH 7.0, 1% DMSO, aggregation counter-screen).
With `NCCCS(=O)(=O)O` the fraction bound was 0.000277 (SLC6A6 (Homo sapiens, UniProt P31641, Y138A); binding, microscale thermophoresis; 30.5 nM, fitted curve; higher = more binding).
